Experimental data pooled from the literature.
Protocols differ between the studies behind these lines. Several values in a cell are separate wells, animals, samples, runs or records. Numbers after ± are the reported error. Converted amounts (≈) assume the structure as drawn.
Sequence of UniProt Q9H2K8 (whole entry, looked up): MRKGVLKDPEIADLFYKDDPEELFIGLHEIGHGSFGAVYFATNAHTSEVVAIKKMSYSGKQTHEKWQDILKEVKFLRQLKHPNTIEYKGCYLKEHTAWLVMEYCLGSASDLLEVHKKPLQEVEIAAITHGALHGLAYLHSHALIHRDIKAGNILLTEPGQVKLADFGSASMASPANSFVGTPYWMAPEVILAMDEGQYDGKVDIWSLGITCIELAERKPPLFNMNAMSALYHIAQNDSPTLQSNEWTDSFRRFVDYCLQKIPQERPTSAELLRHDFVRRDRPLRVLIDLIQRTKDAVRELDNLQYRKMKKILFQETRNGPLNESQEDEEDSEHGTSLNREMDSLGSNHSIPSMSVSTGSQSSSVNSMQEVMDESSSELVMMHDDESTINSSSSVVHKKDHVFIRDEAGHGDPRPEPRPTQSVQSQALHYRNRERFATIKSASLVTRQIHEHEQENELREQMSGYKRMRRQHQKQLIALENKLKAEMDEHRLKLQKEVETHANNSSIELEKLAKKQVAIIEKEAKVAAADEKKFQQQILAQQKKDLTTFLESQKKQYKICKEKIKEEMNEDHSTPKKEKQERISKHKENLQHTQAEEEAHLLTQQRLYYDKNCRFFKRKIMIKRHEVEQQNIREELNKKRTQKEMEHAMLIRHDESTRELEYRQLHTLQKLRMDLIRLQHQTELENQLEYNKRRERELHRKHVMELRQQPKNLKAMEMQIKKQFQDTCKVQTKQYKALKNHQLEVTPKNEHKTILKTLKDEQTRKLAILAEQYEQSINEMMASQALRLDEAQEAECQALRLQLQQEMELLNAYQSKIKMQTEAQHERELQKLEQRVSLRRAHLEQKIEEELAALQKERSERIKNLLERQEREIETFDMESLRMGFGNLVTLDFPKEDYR
Sequence of UniProt Q8TBX8 (whole entry, looked up): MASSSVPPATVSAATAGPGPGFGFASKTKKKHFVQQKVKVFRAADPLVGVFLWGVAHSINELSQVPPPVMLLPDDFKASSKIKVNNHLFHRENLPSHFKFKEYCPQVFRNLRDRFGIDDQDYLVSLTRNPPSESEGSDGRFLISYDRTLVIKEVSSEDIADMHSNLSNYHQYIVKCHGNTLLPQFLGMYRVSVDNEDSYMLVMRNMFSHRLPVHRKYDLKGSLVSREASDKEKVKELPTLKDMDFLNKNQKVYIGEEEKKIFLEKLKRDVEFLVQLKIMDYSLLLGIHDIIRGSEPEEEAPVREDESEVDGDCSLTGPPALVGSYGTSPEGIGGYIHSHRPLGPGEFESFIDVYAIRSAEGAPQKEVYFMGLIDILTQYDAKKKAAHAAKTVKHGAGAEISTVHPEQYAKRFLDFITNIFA
Sequence of UniProt Q96SB4 (whole entry, looked up): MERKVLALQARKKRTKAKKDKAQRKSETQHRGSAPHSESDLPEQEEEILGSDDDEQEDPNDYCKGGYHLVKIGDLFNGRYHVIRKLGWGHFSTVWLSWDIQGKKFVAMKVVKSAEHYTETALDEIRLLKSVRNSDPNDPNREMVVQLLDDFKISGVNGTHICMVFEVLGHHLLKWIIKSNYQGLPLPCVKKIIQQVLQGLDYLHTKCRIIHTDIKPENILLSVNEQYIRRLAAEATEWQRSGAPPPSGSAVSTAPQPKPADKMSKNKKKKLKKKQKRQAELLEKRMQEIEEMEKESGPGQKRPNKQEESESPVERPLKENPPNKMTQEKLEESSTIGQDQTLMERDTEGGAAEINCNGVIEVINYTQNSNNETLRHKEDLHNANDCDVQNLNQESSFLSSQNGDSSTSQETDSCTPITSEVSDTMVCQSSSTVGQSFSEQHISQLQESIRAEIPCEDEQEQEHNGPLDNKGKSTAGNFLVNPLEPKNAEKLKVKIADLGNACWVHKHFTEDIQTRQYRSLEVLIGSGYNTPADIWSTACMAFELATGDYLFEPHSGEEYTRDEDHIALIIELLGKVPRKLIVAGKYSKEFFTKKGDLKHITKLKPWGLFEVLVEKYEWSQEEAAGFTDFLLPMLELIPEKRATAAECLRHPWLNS
Sequence of UniProt Q04771 (whole entry, looked up): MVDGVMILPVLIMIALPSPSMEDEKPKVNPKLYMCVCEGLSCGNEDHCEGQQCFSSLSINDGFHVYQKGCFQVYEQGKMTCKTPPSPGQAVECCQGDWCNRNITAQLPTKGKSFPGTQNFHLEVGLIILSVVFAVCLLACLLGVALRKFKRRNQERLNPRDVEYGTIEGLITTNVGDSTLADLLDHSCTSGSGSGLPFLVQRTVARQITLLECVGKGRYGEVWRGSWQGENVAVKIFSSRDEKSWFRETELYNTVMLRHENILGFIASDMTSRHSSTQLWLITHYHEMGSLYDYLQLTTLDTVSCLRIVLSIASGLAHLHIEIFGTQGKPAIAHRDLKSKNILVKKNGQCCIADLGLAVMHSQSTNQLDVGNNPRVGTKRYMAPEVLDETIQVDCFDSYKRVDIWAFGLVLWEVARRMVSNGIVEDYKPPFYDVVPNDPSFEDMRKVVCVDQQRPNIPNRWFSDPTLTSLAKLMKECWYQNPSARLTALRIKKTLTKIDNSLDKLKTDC

O=C1NC2(CC2)COc2ncc(F)cc2[C@H]2COCCN2c2ccn3ncc1c3n2  serum triglycerides (Sprague-Dawley rat, male, serum; oral, 20 mg/kg/day, end of treatment, 4-week subacute toxicity): 0.39 ± 0.07 mmol/L
CC(C)[C@H]1NC(=O)C[C@H]2/C=C/CCSSC[C@@H](NC1=O)C(=O)N[C@H](Cc1cccc3ccccc13)C(=O)NCC(=O)O2  inhibition (SRPK1 (Homo sapiens, UniProt Q96SB4); enzyme activity, inhibitor; 10 µM): -3.5%
COc1cc(C(SC(C)C)SC(C)C)ccc1OCCNS(=O)(=O)c1cccc(C(F)(F)F)c1  EC50 (Tobacco mosaic virus; inactivation activity; plant in vivo): 936.7 ± 2.7 µg/mL
O=C1NC(=O)c2c1c1cc(F)c[n+]3c1c1c2c2cc(O)ccc2[n]1[Ru-4]312([N]=C=S)[S+]3CC[S+]1CC[S+]2CC3 (stereo not shown)  remaining activity (TAOK3 (Homo sapiens, UniProt Q9H2K8); enzyme activity; 100 nM, human enzyme, added: 10 µM ATP; reference: untreated): 89%
CC(O)CN.O=C(O)C(Cl)Cl  herbicidal inhibition (Eleusine indica; 15 mg/mL, 21 days, post-emergence, greenhouse): 44%
CN(C)[C@H]1C[C@@]23CC[C@@]4(O2)C(=CC[C@]2(C)[C@@H](c5ccc6ccncc6c5)CC[C@H]24)C=C3[C@@H](O)[C@@H]1O  inhibition (PIP4K2C (Homo sapiens, UniProt Q8TBX8); ATP probe labelling, inhibitor, KiNativ profiling; 0.1 µM): -23.2%
COc1ccc(C2=[N+]([O-])c3ccccc3N3CCCN=C23)cc1  MIC90 (Prevotella spp.; bacterial growth): 1 µg/mL (≈ 3.25 µM)
CCCCSC(SCCCC)c1ccc(OCCNS(=O)(=O)c2ccc(F)cc2)c(OC)c1  EC50 (Tobacco mosaic virus; protective activity; plant in vivo): 269 ± 3.7 µg/mL
CC[C@H](C)CCCCC(=O)N[C@@H](CCN)C(=O)N[C@H](C(=O)N[C@@H](CCN)C(=O)N[C@H]1CCNC(=O)[C@H]([C@@H](C)O)NC(=O)[C@H](CCN)NC(=O)[C@H](CCN)NC(=O)[C@H](CC(C)C)NC(=O)[C@@H](CC(C)C)NC(=O)[C@H](CCN)NC1=O)[C@@H](C)O  MIC fold change (Escherichia coli; daily serial passaging; ATCC 8739; highest sub-MIC, 48 days; reference: initial MIC): 3.42
C[C@H](NC(=O)[C@@H](O)c1cc(F)cc(F)c1)C(=O)N[C@@H]1C(=O)N(C)c2ccccc2-c2ccccc21  EC50 (dengue virus type 2; viral replication, Renilla luciferase reporter virus; Huh-7.5.1 wild-type; 48 h): 0.005 µM
CCCSC(SCCC)c1ccc(OCCNS(=O)(=O)c2ccc(Br)cc2)c(Cl)c1  EC50 (Tobacco mosaic virus; inactivation activity; plant in vivo): 495.3 ± 1.8 µg/mL
COc1ccc(C2=[N+]([O-])c3ccccc3N3CC(C)(C)CN=C23)cc1  MIC90 (Parabacteroides distasonis and Bacteroides spp.; bacterial growth): 0.5 µg/mL (≈ 1.49 µM)
CC(C)CC(C(=O)N1CC2(CC1C#N)C(=O)Nc1ccccc12)N(C)C(=O)c1cc2c(F)cc(F)c(F)c2[nH]1 (stereo not shown)  inhibition (Human coronavirus NL63; viral replication; LLC-MK2; 12.5 nM): 97.4%
CCSC(SCC)c1ccc(OCCNS(=O)(=O)c2ccc(C)cc2)cc1  EC50 (Tobacco mosaic virus; protective activity; plant in vivo): 155.1 ± 1.3 µg/mL
Cc1cc(Oc2nc(N3CC[C@@H](c4ccncc4)C3)ncc2F)[nH]n1  IC50 (blood cancer cell lines; cell proliferation; average over lines): 25.7 µM
C[C@H]1O[C@@H](O[C@H]2CC[C@@]3(C)[C@H](C2)C[C@@H]2O[C@]24[C@@H]3C[C@@H](O)[C@]2(C)[C@@H](C3=CC(=O)OC3)CC[C@@]24O)[C@H](O)[C@H](O)[C@@H]1O[C@@H]1O[C@H](CO)[C@@H](O)[C@H](O)[C@H]1O  eggs per female (Oncopeltus fasciatus; diet, concentration not given): 294
OB(O)c1ccc(C(F)(F)F)s1  growth relative to untreated (Staphylococcus aureus; USA300 wild type; 100 µM; reference: untreated): 51.8% and 57.9% and 44.1% and 35.5% and 45.2% and 40.9%
CCOC(=O)C1(Cc2ccc(C#N)cc2)Oc2cc(F)ccc2N(Cc2ccc(C#N)cc2)C1=O (stereo not shown)  inhibition (Eclipta prostrata; fresh weight, greenhouse postemergence; postemergence, 150 g ai/ha, 21 days): 64.3 ± 1.91%
COC(=O)C1=CO[C@@H](C)[C@@H]2Cn3ccc4c5ccccc5nc-4c3C[C@H]12  IC50 (Plasmodium falciparum; growth, [3H]-hypoxanthine uptake; Dd2; 48 h): 4.85 ± 2.02 µM
CCCSC(SCCC)c1ccc(OCCNS(=O)(=O)c2ccccc2C(F)(F)F)c(OC)c1  EC50 (Tobacco mosaic virus; protective activity; plant in vivo): 271.3 ± 1.3 µg/mL
N=C(N)NCCC[C@@H]1NC(=O)[C@H](CCCCNC(=O)CCC(NC(=S)Nc2ccc(CC3CN(CC(=O)O)CCN(CC(=O)O)CCN(CC(=O)O)CCN3CC(=O)O)cc2)C(=O)NCCCC[C@@H]2NC(=O)[C@@H](Cc3ccc(O)cc3)NC(=O)[C@H](CC(=O)O)NC(=O)CNC(=O)[C@H](CCCNC(=N)N)NC2=O)NC(=O)[C@@H](Cc2ccc(O)cc2)NC(=O)[C@H](CC(=O)O)NC(=O)CNC1=O (stereo partly shown) [scandium-44 labelled]  tissue uptake (ex vivo γ-counting; female athymic nude mice, U-87 MG xenograft, intestine; intravenous, 4 h, added: cRGD 50 mg/kg blocking): 0.055 ± 0.013 %ID/g
CS(C)(=O)=Nc1ccc(-c2ccc(-c3nc4cc(O[C@@H]5CO[C@H]6[C@@H]5OC[C@H]6O)[nH]c4cc3F)cc2)cc1  inhibition (ACVR1 (Homo sapiens, UniProt Q04771); enzyme activity, inhibitor; 10 µM): -18%
CCOC(=O)C1(Cc2ccccc2)Oc2cc(OC)ccc2N(Cc2ccccc2)C1=O (stereo not shown)  inhibition (Echinochloa crus-galli; fresh weight, greenhouse postemergence; postemergence, 150 g ai/ha, 21 days): 43 ± 1.79%
FC(F)(F)c1cccc(CNc2nc(NC3CCN(Cc4ccccc4)CC3)c3nc[nH]c3n2)c1  mRNA fold change (Cryptococcus neoformans; RNA-seq, refers to: CNAG_03262; 48 µg/mL, 3 h; reference: untreated): 1.15
CC(C)(C)C(=O)OCOP(=O)(OCOC(=O)C(C)(C)C)C1CCCN(O)C1=O (stereo not shown)  log LC50 (UACC-257): > -4 log M
COc1ccccc1-c1n[nH]c2nc(N[C@H]3CC[C@H](NS(=O)(=O)CC(C)C)CC3)ncc12  relative abundance (bead binding, competition bead pull-down, refers to: LINJ.30.3560; Leishmania donovani extract; 10 µM; reference: vehicle): 1.16
CCOC(=O)C1(Cc2ccc(-c3ccccc3)cc2)Oc2cc(F)ccc2N(Cc2ccc(-c3ccccc3)cc2)C1=O (stereo not shown)  inhibition (Eclipta prostrata; fresh weight, greenhouse postemergence; postemergence, 150 g ai/ha, 21 days): 65.1 ± 2.52%
[O-][N+]1=C(c2ccccc2)C2=NCCCN2c2ncccc21  MIC50 (Parabacteroides distasonis and Bacteroides spp.; bacterial growth): ≤ 0.06 µg/mL
CCCSC(SCCC)c1ccc(OCCNS(=O)(=O)c2ccc(F)cc2)c(OC)c1  EC50 (Tobacco mosaic virus; protective activity; plant in vivo): 515.2 ± 4.3 µg/mL
O=C(NC1CC1)c1cc2c(s1)-c1ccccc1N(C(=O)c1ccc(NC(=O)c3cccnc3N3CCC4(CC3)COC4)cc1)CC2  IC50 (human respiratory syncytial virus; viral replication): 0.2 µM
COc1cc(C(SC(C)C)SC(C)C)ccc1OCCNS(=O)(=O)c1cccc(Br)c1  EC50 (Tobacco mosaic virus; inactivation activity; plant in vivo): 771.6 ± 1.2 µg/mL
COc1ccccc1-c1n[nH]c2nc(NC3CCN(C(=O)Cc4ccc(F)cc4F)CC3)ncc12  relative abundance (bead binding, competition bead pull-down, refers to: LINJ.36.0190; Leishmania donovani extract; 10 µM; reference: vehicle): 0.93
CCOC(=O)C1(Cc2cc(F)c(F)c(F)c2)Oc2cc(F)ccc2N(Cc2cc(F)c(F)c(F)c2)C1=O (stereo not shown)  inhibition (Echinochloa crus-galli; fresh weight, greenhouse postemergence; postemergence, 150 g ai/ha, 21 days): 49.1 ± 1.47%
CN(C(=O)c1ccn2ncc(-c3ccc(C(N)=O)cc3)c2c1)c1ccc(C#N)cn1  faecal Nluc luminescence (Cryptosporidium parvum; UGA1 Nluc, IFN-gamma knockout C57BL/6 mice, faeces; oral, 10 mg/kg daily, 432 h post infection, treatment days 11-17; higher means more parasites): 47 a.u. and 308 a.u. and 7250 a.u. and 129 a.u.
CN[C@H](CC(C)C)C(=O)N[C@H]1C(=O)N[C@@H](CC(N)=O)C(=O)N[C@H]2C(=N)N[C@H]3C(=O)N[C@H](C(=O)N[C@H](C(=O)O)c4cc(O)cc(O)c4-c4cc3ccc4O)[C@H](O)c3ccc(c(Cl)c3)Oc3cc2cc(c3O)Oc2ccc(cc2Cl)[C@H]1O  accumulation increase (Enterococcus faecium; ATCC BAA-2317 VanA; 10 µg/mL; reference: no antibiotic): 4 to 6 fold
[O-][N+]1=C(c2ccc(Cl)cc2)C2=NCCCCN2c2ccccc21  MIC90 (Prevotella spp.; bacterial growth): 0.5 µg/mL (≈ 1.53 µM)
CCCSC(SCCC)c1ccc(OCCNS(=O)(=O)c2ccc(F)c(Cl)c2)c(OC)c1  EC50 (Tobacco mosaic virus; protective activity; plant in vivo): 563.7 ± 1.6 µg/mL
Cc1cc(C(=O)Nc2nc3cccc(C)c3n2[C@H]2CCCCN(C(=O)/C=C/CN(C)C)C2)ccn1  EC50 fold shift (Trypanosoma brucei; cell growth, Alamar Blue; 2T1 overexpressing Tb927.11.10520; reference: parental 2T1): 1.52 fold and 0.75 fold
CC[C@H](C)[C@H](NC(=O)[C@H](CO)NC(=O)[C@H](Cc1ccc(O)cc1)NC(=O)[C@H](Cc1ccc(O)cc1)NC(=O)[C@H](CC(N)=O)NC(=O)CNC(=O)[C@H](CO)NC(=O)[C@H](Cc1ccc(O)cc1)NC(=O)[C@H](CO)NC(=O)[C@H](CO)NC(=O)[C@H](CC(N)=O)NC(=O)COCCOCCNC(=O)CN1CCN(CC(=O)O)CCN(CC(=O)O)CCN(CC(=O)O)CC1)C(=O)N[C@@H](CC(C)C)C(N)=O [copper-64 labelled]  tumour uptake (dynamic PET; mouse, tamoxifen-induced PDAC, tumor; intravenous, 0.1 µg/mouse, 8.5 min): 12.1 %ID/mL
[O-][N+]1=C(Cc2ccccc2)C2=NCCCN2c2ccccc21  MIC90 (Prevotella spp.; bacterial growth): 4 µg/mL (≈ 13.7 µM)
